Published values from different studies.
Compare with care: the assays were run in different laboratories. Values joined by “and” are separate records of one study, mostly repeats; a detail may differ. Numbers after ± are the reported error. In brackets after ≈: the same amount, converted by molar mass.

For `CC(C)[C@@H]1NC(=O)[C@@H](CC(N)=O)NC(=O)[C@H](Cc2ccccc2)NC(=O)[C@@H](CCCN)NC(=O)[C@H](CCCN)NC(=O)[C@H]([C@@H](C)O)NC(=O)[C@@H](C(C)C)NC(=O)[C@H](C(C)C)NC(=O)[C@@H]([C@H](C)O)NC(=O)[C@@H](C(C)C)NC1=O`, the IC50 was 11.2 µg/mL (Acanthamoeba castellanii; trophozoites).
`COc1cc(CCC[P+](c2ccccc2)(c2ccccc2)c2ccccc2)c(OC)c2c1OCO2.[I-]` has an LC50 of -4.13 log M (IGROV-1; SRB).
With `CCNC(=O)N1CCN(CCCC(c2ccc(F)cc2)c2ccc(F)cc2)CC1` the IC50 was 1000 nM (Plasmodium falciparum; 3D7).
`Nc1ncnc2c1ncn2[C@@H]1O[C@@H]2COP(=O)(O)O[C@H]3[C@@H](O)[C@H](n4cnc5c(=O)[nH]cnc54)O[C@@H]3COP(=O)(O)O[C@H]2[C@H]1O`: “pathway fold enrichment” 2.89 (HFF-1; RNA sequencing, measured: Immune System; upregulated pathway; reference: Zika virus alone).
The Km of `O=C1CC[C@@]2(O)[C@H]3Cc4ccc(O)c5c4[C@@]2(CCN3CC2CC2)[C@H]1O5` is reported as 92.4 µM (H+/organic cation antiporter; cell uptake; hCMEC/D3).
`O=C(NC12CC3CC(CC(C3)C1)C2)c1cc(-c2ccncc2Cl)c[nH]1` has an IC50 of greater than 64 µg/mL (Vero; 48 h).
With `OC(c1cc(C(F)(F)F)nc2c(C(F)(F)F)cccc12)C1CCCCN1` (stereo not drawn) the IC50 was 8 nM (Plasmodium falciparum; HB3).
For `C[C@@H](O)[C@@H]1NC(=O)[C@H](Cc2ccccc2)NC(=O)[C@@H](Cc2ccccc2)NC(=O)[C@H](Cc2ccccc2)NC(=O)[C@@H](CCCN)NC(=O)[C@H](CCCCN)NC(=O)[C@@H](CCCCN)NC1=O`, the IC90 was greater than 16 µg/mL (Acanthamoeba castellanii; trophozoites).
`COc1c(C)c2c(c(O)c1C/C=C(\C)CCC(=O)O)C(=O)OC2` has an IC50 of 1170 nM (Breast cancer cell lines; cell proliferation).
`CC(C)[C@@H]1NC(=O)[C@@H](Cc2ccccc2)NC(=O)[C@H](Cc2ccccc2)NC(=O)[C@@H]([C@H](C)O)NC(=O)[C@@H](CCCNC(=N)N)NC1=O` has an IC50 of greater than 16 µg/mL (Naegleria fowleri; trophozoites).
For `Cc1cc(Nc2ccc(C)c(Cl)c2)n2nc(C(F)(F)F)nc2n1`, the EC50 ratio was 16 (Plasmodium falciparum; parasite growth, SYBR Green; 72 h; reference: 3D7-E182D over 3D7).
`CCN1CCN(C(=O)N[C@@H](C(=O)N[C@@H]2C(=O)N3[C@@H]2SC(C)(C)[C@@H]3C(=O)O)c2ccccc2)C(=O)C1=O` has a kinact/KI of 24000 ± 3500 M⁻¹ s⁻¹ (PBP3 Streptococcus pneumoniae; Bocillin-FL competition; live Streptococcus pneumoniae cells; 30 min, added: Bocillin-FL 600 nM).
For `CCNC(=O)c1ccc(-n2nc(C)cc2-c2ccccc2)cc1`, the EC50 was 5850 ± 880 nM (Plasmodium falciparum; parasite growth, SYBR Green; 3D7 DHODH E182D; 72 h).
`CN1CCC(=C2c3ccccc3CC(=O)c3sccc32)CC1` gave an IC50 of 10000 nM (Plasmodium falciparum; HB3).
`C[C@H](C(=O)N[C@H]1COc2ccccc2[C@@H]1S(C)(=O)=O)c1ccc(F)cc1` gave an inhibition of 3% (L-type calcium channel, rat, Dihydropyridine site; binding; 10 µM, Eurofins selectivity panel).
The EC50 of `C[C@@H]1CN(c2ccnc3ccc(Sc4ccc(Oc5ccccc5)cc4)cc23)C[C@H](C)N1` is reported as 673 ± 81 nM (Plasmodium falciparum; parasite growth, SYBR Green; 3D7 DHODH E182D; 72 h).
The IC90 of `CC(C)[C@@H]1NC(=O)[C@@H](CCCN)NC(=O)[C@H]([C@@H](C)O)NC(=O)[C@H](Cc2ccccc2)NC(=O)[C@@H](Cc2ccccc2)NC(=O)[C@H](Cc2ccccc2)NC(=O)[C@@H](CCCN)NC1=O` is reported as greater than 16 µg/mL (Acanthamoeba castellanii; trophozoites).
Under “corridor crossing time”, `C#CCN(C)[C@H](C)Cc1ccccc1` is recorded as 7.87 s and 6.99 s and 5.86 s and 6.33 s and 5.16 s and 4.04 s and 5.22 s (footprint test; MPTP-induced Parkinson's disease mouse model; 10 mg/kg, trial 2).
For `O=C(CCCN1CC=C(n2c(=O)[nH]c3ccccc32)CC1)c1ccc(F)cc1`, the IC50 was 5010 nM (Plasmodium falciparum; 7G8).
The EC50 of `CN(C)S(=O)(=O)c1ccc(Sc2ccccc2)c(C(=O)N2CCCC(C(N)=O)C2)c1` (stereo not drawn) is reported as 134 ± 32 nM (Plasmodium falciparum; parasite growth, SYBR Green; 3D7 wild type; 72 h).
With `CN(C)CCCC1(c2ccc(F)cc2)OCc2cc(C#N)ccc21` (stereo not drawn) the IC50 was 1580 nM (Plasmodium falciparum; GB4).
The EC50 of `Cc1cc(Nc2ccc(Cl)c(Cl)c2)n2nc(C)nc2n1` is reported as 104 ± 32 nM (Plasmodium falciparum; parasite growth; Dd2).
Under “log2 fold change”, `CC[C@H](C)[C@@H]1NC(=O)[C@@H]2CCCN2C(=O)[C@H](CC(C)C)NC(=O)[C@H](CC(C)C)NC(=O)CNC(=O)[C@@H](NC(=O)[C@@H](NC(=O)[C@H](CC(=O)O)NC(=O)CNC(=O)[C@@H](NC(=O)[C@H](C)NC(=O)CNC(=O)[C@H](CCCCN)NC(=O)[C@H](CC(C)C)NC(=O)[C@H](CC(C)C)NC(=O)[C@H](CCCCN)NC(=O)CNC(=O)[C@@H](NC(=O)[C@@H](N)CC(C)C)C(C)C)C(C)C)C(C)C)CSSC[C@@H](C(=O)O)NC1=O` is recorded as -1.54 (RNA-seq, measured: Irf1; mouse, traumatic brain injury model, frontal cortex and hippocampus; dose not given; reference: TBI alone).
`O=C(NC1CCCCCCC1)c1cc(-c2ccc(Cl)cc2)c[nH]1` gave an IC50 of greater than 64 µg/mL (Vero; 48 h).
For `COc1c(CCC[P+](c2ccccc2)(c2ccccc2)c2ccccc2)cc2c(c1OC)OCO2.[I-]`, the mean Log10GI50 was -5.8 log M (NCI60 panel; SRB).
With `CCC(c1ccccc1)c1nn2c(-c3cccs3)nnc2s1` (stereo not drawn) the EC50 was 116 ± 71 nM (Plasmodium falciparum; parasite growth, SYBR Green; 3D7 wild type; 72 h).
With `Nc1ccn(C[C@@H](CO)OCP(=O)(O)O)c(=O)n1` the infection was 62.3% and 46.1% and 45.3% (Fowlpox virus; viral infection; CEF; 200 µM; reference: untreated).
The IC50 of `Fc1ccc(C(OCCCc2c[nH]cn2)c2ccc(F)cc2)cc1` is reported as 2000 nM (Plasmodium falciparum; HB3).
The MIC of `CS(=O)(=O)Nc1ncn(-c2cc(F)c(COc3ccc(OS(=O)(=O)F)cc3)c(F)c2)n1` is reported as 0.042 µM (≈ 0.0201 µg/mL) (Mycobacterium tuberculosis; MABA; H37Rv).
`CNCCC=C1c2ccccc2CCc2ccccc21` gave an IC50 of 2510 nM (Plasmodium falciparum; W2).
For `O=C1NC(=O)C(C2C3=C(CCCC3=O)Oc3ccc([N+](=O)[O-])cc32)C(=O)N1` (stereo not drawn), “mean lipid content” read 0.689 OD492 (3T3-L1 mature adipocytes; lipolysis, Oil Red O staining; IC20).
`CCCCN(C)CC#Cc1ccc2[nH]c(C)c(Cl)c(=O)c2c1` has an EC50 of 181 ± 26 nM (Plasmodium falciparum; parasite growth, SYBR Green; 3D7 wild type; 72 h).
`COc1cc2c(cc1C(F)(F)F)N(C(=O)Nc1cc(F)cc(-c3cccnc3)c1)CC2` gave an IC50 of 2510 nM (Plasmodium falciparum; W2).

Excerpt of the above:
The IC90 of `CC(C)[C@@H]1NC(=O)[C@@H](CCCN)NC(=O)[C@H]([C@@H](C)O)NC(=O)[C@H](Cc2ccccc2)NC(=O)[C@@H](Cc2ccccc2)NC(=O)[C@H](Cc2ccccc2)NC(=O)[C@@H](CCCN)NC1=O` is reported as greater than 16 µg/mL (Acanthamoeba castellanii; trophozoites).
`CC(C)[C@@H]1NC(=O)[C@@H](Cc2ccccc2)NC(=O)[C@H](Cc2ccccc2)NC(=O)[C@@H]([C@H](C)O)NC(=O)[C@@H](CCCNC(=N)N)NC1=O` has an IC50 of greater than 16 µg/mL (Naegleria fowleri; trophozoites).
`C[C@H](C(=O)N[C@H]1COc2ccccc2[C@@H]1S(C)(=O)=O)c1ccc(F)cc1` gave an inhibition of 3% (L-type calcium channel, rat, Dihydropyridine site; binding; 10 µM, Eurofins selectivity panel).
Under “corridor crossing time”, `C#CCN(C)[C@H](C)Cc1ccccc1` is recorded as 7.87 s and 6.99 s and 5.86 s and 6.33 s and 5.16 s and 4.04 s and 5.22 s (footprint test; MPTP-induced Parkinson's disease mouse model; 10 mg/kg, trial 2).
